Published values of several laboratories.
Each numbered part is a random draw from the data of one study; scales do not carry over between parts.

Series 1
Target: Centromere-binding protein 1, full length, His-tagged (CBF1, Saccharomyces cerevisiae, UniProt P17106, residues 1-351)
Sequence of UniProt P17106 (whole entry, looked up): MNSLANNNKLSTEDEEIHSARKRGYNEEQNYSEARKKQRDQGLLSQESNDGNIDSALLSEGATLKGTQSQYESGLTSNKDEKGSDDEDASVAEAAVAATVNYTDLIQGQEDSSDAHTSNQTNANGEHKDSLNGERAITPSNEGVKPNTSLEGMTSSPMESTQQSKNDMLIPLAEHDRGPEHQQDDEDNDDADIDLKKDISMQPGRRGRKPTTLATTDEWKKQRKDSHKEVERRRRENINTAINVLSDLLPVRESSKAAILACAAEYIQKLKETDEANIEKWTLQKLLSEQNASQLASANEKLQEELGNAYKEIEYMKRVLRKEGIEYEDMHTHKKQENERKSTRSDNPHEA
Technique: competition protein-binding microarray
Form: double-stranded DNA, one strand shown
Sample: in vitro
Concentration: 2 µM
Notes: whole 60-bp probe, lowest competitor level
Added: Pho4 competitor, 0.05 µM
Reading: higher = stronger binding
Strand | fluorescence intensity [a.u.]
CGTCCTAGTGATTTTCACGTGATATCCATGAGGAAGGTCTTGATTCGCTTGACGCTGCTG | 3670
CCTATAACAGCAGTTGTCGTGATGGTTATAGATAAAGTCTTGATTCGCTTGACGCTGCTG | 89
ATAAGGAATAAAAAACACGTGCTAATAAAAAATCAAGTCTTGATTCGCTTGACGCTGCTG | 4150
GCGCAATATGCAGGTACCGTGCCGACTGATTCCCTTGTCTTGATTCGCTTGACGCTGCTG | 69.1
CAAGGGGGGGCCAGACACGGGCCGCTCTGGTTGGTCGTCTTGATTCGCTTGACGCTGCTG | 93.7
CTTTCATCATATTTTCATGTGTCAGAAATAACACCGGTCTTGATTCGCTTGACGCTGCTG | 117
AAATTACTAAGTTGCAGAGTGGGTGACGCCGTATGAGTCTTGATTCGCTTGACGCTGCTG | 61.6
CTTTCCCGATCTTGAAGCGTGGGTGTAGCACATTTGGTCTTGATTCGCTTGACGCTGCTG | 70.5
CGTCCTAGTGATTTTCACGTGTGATCCATGAGGAAGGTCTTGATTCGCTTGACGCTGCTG | 735
AAATTACTAAGTTGGAGGGTGGGTGACGCCGTATGAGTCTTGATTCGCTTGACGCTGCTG | 64.4
TACTGCTCCAGGGGTGACTTGATGTCCTCTGCTGGGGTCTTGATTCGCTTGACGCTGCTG | 58.6
TTGAACAACCATCCCAACGTGAAGAAGCCAAGAAGGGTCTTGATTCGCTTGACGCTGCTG | 69.9
ACAGTTTCCCACTGTCACACTTCACTGTTGCATACTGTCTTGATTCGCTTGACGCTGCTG | 98.2
TGCGCAACAACTTTGCACGTGTTTTTATGTCTAGAAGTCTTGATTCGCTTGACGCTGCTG | 2160
CGGGGTTAAGTTTGTCACAGAACTTGCTTGCAGCAGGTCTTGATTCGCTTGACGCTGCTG | 87.8
AAATTACTAAGTTGTCACCACACTTACCCCGTATGAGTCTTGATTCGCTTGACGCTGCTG | 83.5
CACTATCCATCCTGGCACGTGTTCCTGGCCACCTTGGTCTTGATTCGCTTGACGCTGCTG | 1810

Series 2
Target: RNA binding protein fox-1 homolog 2, RRM domain, GST-SBP tag (RBFOX2, Homo sapiens, UniProt O43251-10, residues 100-194)
Technique: RNA Bind-n-Seq
Form: RNA
Sample: in vitro
Concentration: 365 nM
Notes: natural RNA segment, single round, ends assumed
Baseline: no-protein control
Reading: higher = stronger binding
Construct (chain): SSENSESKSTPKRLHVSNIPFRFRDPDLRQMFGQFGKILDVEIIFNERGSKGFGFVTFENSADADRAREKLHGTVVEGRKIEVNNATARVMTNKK
Strand | RBNS enrichment (R)
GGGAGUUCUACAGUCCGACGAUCUGCUUCGCUUGUUUGUAAGGAGAAAUGCAUCUGGUUAUGUGAAUUUCCCGAGAGCAGCAGACAUGGAGGGCCAGACUUUAAAAGCAACGCAAGCAGAUUCGAAGAGCUGUUGGAAUUCUCGGGUGCCAA | 1.02
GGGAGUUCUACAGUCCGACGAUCUGAGCAGUGAAUGAUUCAGUGUUAAAUGUGAUGAAUACUGUAUUUUGUAUUGUUUCAAUUGCAUCUCCCAGAUAAUGUGAAAAUGGUCCAGGAGAAGGCCAAUUCCUAUAUGGAAUUCUCGGGUGCCAA | 1.45
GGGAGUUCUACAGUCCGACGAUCCAUACACAGAAGAUAGAAAAAUCUAGCAAAACUUCUCUUUCUGUAAGCCAGAGUCUUGUCUAUCAGAUUCCCACAACCACUCCUGAUUCUAAAUUUAGUGAUAUGGUAAUUGGAAUUCUCGGGUGCCAA | 0.561
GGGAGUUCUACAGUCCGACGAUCUAGUUCGGCGAGGAGACUGGCCACUGGGGGUGGCUGUUCGGGACUGAGAGCGCCAAGGGUCUUUGCCAGCAAAGGAGGUUCUGCCUGUAAUUGAGCCUCUCUGAUGAUGGUGGAAUUCUCGGGUGCCAA | 2.66
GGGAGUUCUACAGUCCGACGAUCUUUGAAAUGAUGAUAAUCCUAAUUAUAUAAAAAUAUAUAUAUAAACACACAUAUAUAUAGUGAUUUCUAAAGAUUUGUUUACUUUUGUGUUUUGUUUUACUGUACUAAGAUGGAAUUCUCGGGUGCCAA | 1.4
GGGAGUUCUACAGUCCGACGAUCUGUAGGACUGCAGUUCUGAAUUUUGGGUUAAAGGUUUUGGCUGCUGUAAGAAUGUGAAUUUGAAUGUAUUUUGAAUUGUAAGAGCAAAAGAACGUUUUUGUACAAUUUUUUGGAAUUCUCGGGUGCCAA | 7.62
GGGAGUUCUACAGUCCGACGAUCCCAGGUGUUCUCUGAAAGCUUAGCCUUAAGAGAACACGCAGAGAGUUUCCCUAGAUAUACUCCUGCCUCCAGGUGCUGGGACACACCUUUGCAAAAUGCUGUGGGAAGCAUGGAAUUCUCGGGUGCCAA | 0.681
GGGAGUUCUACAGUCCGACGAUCCUCACUGCAACUUCCACCUCCUGGGUUCCAGCAGUUCUCCUGCCUCAGCCUCCCAAGUAGCUGAGAUUACAGGCGCCUGCCACCCCACCUGGCUGAUUUUUGUAAUUUUAUGGAAUUCUCGGGUGCCAA | 0.247
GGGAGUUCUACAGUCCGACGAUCUCAUAGAGGCCAUUGGCUUCCUUUGUAUAAGGAGAGGGAGAAGUGAUUCUGGAAGGAGAAGUUGGUAUGUCUAGCUUCAUUGCGGCCCCUCGGGCUACCCAGCAAGAGGAUGGAAUUCUCGGGUGCCAA | 0.274
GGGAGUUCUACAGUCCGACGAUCCACCGAGGCCAAAGGCUGCCUCAGCCUUCCCAGCCCAUCCACUCAGCUGUUACCACCCUCUCAGCCUGACGAGACUUAGGCUUCUUAAGAUGUCCUUCCAGCUUGUCAGAUGGAAUUCUCGGGUGCCAA | 0.265
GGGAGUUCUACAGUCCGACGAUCGGAAGCCGGGUCUUGCGAGCUGGAGAAAUGGACUGGAUGAGGGCUCUAGGGGUGGGCUGUUUACACACUCCAGGAAUCUAGGGGUCGGUGUCUCCUUCCUGGAGAGGCUAUGGAAUUCUCGGGUGCCAA | 0.976
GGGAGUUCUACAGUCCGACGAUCGUGAUUAUGGAGAUGAUUGGCUCCAUAUUCCACCACGUCAUUCCUUCAACUCACCAGACACCUUUCUUUAGUUGAAAUAAACCAGCAUGACCUGGAGAUCAUGGUGACUGUGGAAUUCUCGGGUGCCAA | 0.945

Series 3
Target: Ras GTPase-activating protein-binding protein 1, full length (G3BP1, Homo sapiens, UniProt Q13283)
Sequence of UniProt Q13283 (whole entry, looked up): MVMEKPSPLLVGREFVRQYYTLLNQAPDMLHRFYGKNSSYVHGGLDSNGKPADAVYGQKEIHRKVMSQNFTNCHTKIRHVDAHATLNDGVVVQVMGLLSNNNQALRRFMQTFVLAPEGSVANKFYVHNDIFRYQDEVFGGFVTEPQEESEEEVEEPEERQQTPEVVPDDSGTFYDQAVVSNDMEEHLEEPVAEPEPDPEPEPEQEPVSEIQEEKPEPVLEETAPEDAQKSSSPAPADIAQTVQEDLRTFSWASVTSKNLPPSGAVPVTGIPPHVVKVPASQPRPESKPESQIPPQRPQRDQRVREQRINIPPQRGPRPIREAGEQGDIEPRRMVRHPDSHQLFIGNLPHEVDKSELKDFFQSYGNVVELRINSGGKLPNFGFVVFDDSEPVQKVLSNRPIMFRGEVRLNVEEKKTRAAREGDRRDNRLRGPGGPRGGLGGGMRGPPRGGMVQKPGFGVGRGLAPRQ
Technique: RNA Bind-n-Seq
Form: RNA
Sample: in vitro
Concentration: 200 nM
Notes: whole 134-nt RNA, ends assumed
Added: 150 mM KCl
Baseline: input library
Reading: higher = stronger binding
Strand | log2 enrichment
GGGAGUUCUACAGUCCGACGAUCCAAGUCCUGUGCUACACAUCGUAUGUACCGAAUCGGAAAAAAAGGAAAGGUUUGGAAAGUAUUAUGUUACGCCGUUCGGAUCUGCACUUCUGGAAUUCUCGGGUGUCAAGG | -1.44
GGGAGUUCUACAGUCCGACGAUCUCCUGUGCUACACAUCGUAUGUACCGAAUCGGGGUUUUUGGGGUUUUUGGGUUUUUGGGAAAGUAUUAUGUUACGCCGUUCGGAUCUGCAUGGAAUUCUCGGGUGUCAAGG | 0.205
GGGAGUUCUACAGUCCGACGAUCCCUCAAGUCCUGUGCUACACAUCGUAUGUACCGAAUCGGCGGGGCGGGGCGGAAAGUAUUAUGUUACGCCGUUCGGAUCUGCACUUCCAGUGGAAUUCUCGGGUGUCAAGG | 0.225
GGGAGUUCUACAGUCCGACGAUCGCAGGAAGUAAAAACAAAUGGAUAUGCUUCGGAUAGUGGCAGGGGUGGGGGUUGCUAAGGAAAGGGUGGGAUGGGAGUGGGUAAAGAGUUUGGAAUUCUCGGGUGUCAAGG | 0.786
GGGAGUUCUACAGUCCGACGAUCCCUCAAGUCCUGUGCUACACAUCGUAUGUACCGAAUCGGGAGGGAGGGGAGGGAAAGUAUUAUGUUACGCCGUUCGGAUCUGCACUUCCAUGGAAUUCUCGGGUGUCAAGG | 1.6
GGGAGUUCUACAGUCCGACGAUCCCUGUGCUACACAUCGUAUGUACCGAAUCGGAAAAAAAGGAAAAAAAGGGGAAAAAAAGGAAAGUAUUAUGUUACGCCGUUCGGAUCUGCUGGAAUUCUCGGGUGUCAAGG | -0.843
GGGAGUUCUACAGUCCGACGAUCACCAUGCAGGUGGGCAUCUUUGGGAAGUGGGGCAAGGGGGGGAUAGGGAGGGGGGUAACACUUUGGGAACAGGUGGUCCCUGGUCGUUUCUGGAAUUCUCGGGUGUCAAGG | 1.25
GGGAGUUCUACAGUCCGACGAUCGGCACAGGUGCCCGACCAUACACUGGGAAAGUUGGUGCUGAGGAUGCCGAUGGGAUUGACAUGGCCUACCGGGUGCUGGCUGACCACGCUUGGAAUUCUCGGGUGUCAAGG | -1.06
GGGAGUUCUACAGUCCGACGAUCCACAGACAACACGCACCCACACAGACACAGAGGGAAGGGGUUGGAAAGGGGACAGGGUGCACAGCAGGGCGGGGUAGGACCCCAGCCCCUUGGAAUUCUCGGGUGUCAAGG | 1.74
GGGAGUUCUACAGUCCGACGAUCCUGUGCUACACAUCGUAUGUACCGAAUCGGGGCCCCCCCGGGCCCCCCCGGGGCCCCCCCGGAAAGUAUUAUGUUACGCCGUUCGGAUCUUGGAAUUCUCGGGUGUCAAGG | -1.4

Series 4
Target: Histone acetyltransferase KAT6A, winged helix 2, GST fusion (KAT6A, Homo sapiens, UniProt Q92794, residues 85-181)
Technique: protein binding microarray
Form: double-stranded DNA, one strand shown
Sample: in vitro
Concentration: not given
Notes: 8-mer, flanks averaged, mean of 2 arrays, mostly near background
Baseline: not given
Reading: higher = stronger binding
Target sequence (chain): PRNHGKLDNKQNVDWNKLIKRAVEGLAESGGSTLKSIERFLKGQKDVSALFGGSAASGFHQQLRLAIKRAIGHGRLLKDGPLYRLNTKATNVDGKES
Strand | E-score
GTGGCCCA | 0.115
AACGTCCG | -0.183
CCTACGAC | -0.0375
AGAAATGC | 0.0514
CAGTGTGC | 0.05
GCTCCTCA | -0.00594
ACGTATCA | -0.169
ATTCAGCC | -0.0163
CTATTCTC | -0.0797
AGTCTTTA | -0.157
GTAGTCGA | -0.0522
AGTATTAT | -0.101
ACGTTAAA | -0.129
AATCGCAA | 0.127
GATTATGC | -0.0131
CGCTGGCA | 0.205
CGATAATA | 0.0266
CTGATGAA | 0.0581
GTTCGGAA | 0.169
CCTTTGAA | 0.0353
CTTTACCA | -0.213
AGGAGCAG | -0.0573
CTTAGTAA | 0.0877
AGTACGTA | -0.0875

Some of these lines once more (series 1):
Strand | fluorescence intensity [a.u.]
AAATTACTAAGTTGCAGAGTGGGTGACGCCGTATGAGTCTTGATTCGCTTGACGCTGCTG | 61.6
CTTTCATCATATTTTCATGTGTCAGAAATAACACCGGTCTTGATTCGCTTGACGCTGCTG | 117
CACTATCCATCCTGGCACGTGTTCCTGGCCACCTTGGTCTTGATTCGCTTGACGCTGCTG | 1810
TACTGCTCCAGGGGTGACTTGATGTCCTCTGCTGGGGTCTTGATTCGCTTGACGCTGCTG | 58.6
CGGGGTTAAGTTTGTCACAGAACTTGCTTGCAGCAGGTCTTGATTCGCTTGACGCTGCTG | 87.8
GCGCAATATGCAGGTACCGTGCCGACTGATTCCCTTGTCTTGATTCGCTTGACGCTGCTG | 69.1
AAATTACTAAGTTGGAGGGTGGGTGACGCCGTATGAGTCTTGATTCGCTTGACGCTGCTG | 64.4
CGTCCTAGTGATTTTCACGTGTGATCCATGAGGAAGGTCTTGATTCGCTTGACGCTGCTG | 735
TGCGCAACAACTTTGCACGTGTTTTTATGTCTAGAAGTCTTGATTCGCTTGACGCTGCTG | 2160
